# Measurements pooled from the literature.
# Parts stem from different laboratories: compare values within a part only.
# UniProt P10721, sequence (whole entry, unmodified, looked up): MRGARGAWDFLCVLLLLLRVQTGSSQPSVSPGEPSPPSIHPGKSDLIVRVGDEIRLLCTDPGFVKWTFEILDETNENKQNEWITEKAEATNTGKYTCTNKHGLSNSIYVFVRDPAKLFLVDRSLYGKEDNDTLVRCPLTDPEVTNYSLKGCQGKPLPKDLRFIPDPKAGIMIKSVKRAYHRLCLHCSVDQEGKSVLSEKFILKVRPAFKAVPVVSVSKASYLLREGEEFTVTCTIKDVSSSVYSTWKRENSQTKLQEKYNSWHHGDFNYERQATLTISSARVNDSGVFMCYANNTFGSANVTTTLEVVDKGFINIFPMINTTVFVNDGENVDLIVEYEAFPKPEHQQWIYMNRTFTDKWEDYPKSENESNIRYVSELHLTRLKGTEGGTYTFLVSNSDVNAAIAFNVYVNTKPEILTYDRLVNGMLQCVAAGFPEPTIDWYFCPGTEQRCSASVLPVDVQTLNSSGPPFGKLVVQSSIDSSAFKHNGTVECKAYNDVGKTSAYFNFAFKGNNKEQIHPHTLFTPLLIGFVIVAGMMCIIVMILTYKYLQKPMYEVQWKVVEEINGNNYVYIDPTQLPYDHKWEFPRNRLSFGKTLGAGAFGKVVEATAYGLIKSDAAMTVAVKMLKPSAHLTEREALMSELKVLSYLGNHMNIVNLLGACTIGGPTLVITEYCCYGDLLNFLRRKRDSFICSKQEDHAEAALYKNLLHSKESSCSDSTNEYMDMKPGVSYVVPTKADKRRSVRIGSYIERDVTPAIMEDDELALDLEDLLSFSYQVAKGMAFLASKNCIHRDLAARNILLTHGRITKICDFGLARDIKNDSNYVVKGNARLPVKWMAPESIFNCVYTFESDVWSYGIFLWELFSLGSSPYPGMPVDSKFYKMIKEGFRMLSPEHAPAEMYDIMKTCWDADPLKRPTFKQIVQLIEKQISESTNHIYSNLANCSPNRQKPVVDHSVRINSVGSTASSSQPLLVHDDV
# UniProt Q8NG66, sequence (whole entry, looked up): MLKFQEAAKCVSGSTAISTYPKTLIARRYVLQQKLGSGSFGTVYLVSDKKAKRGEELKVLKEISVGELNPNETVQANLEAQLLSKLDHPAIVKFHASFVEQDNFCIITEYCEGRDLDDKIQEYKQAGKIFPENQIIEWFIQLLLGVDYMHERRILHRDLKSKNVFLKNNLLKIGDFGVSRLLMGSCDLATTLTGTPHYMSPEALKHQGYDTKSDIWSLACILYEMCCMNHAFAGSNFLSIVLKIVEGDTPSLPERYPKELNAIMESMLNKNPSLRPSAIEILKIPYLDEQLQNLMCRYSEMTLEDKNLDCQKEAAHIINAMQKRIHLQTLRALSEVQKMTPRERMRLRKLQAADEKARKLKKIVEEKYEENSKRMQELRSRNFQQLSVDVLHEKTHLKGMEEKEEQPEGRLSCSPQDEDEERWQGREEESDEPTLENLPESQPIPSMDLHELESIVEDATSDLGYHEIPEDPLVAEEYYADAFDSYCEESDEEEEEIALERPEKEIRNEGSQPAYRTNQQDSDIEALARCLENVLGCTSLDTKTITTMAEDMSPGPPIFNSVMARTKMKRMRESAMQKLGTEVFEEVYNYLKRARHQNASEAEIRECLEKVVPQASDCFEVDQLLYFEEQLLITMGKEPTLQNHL
# UniProt Q9Y4K4, sequence (whole entry, looked up): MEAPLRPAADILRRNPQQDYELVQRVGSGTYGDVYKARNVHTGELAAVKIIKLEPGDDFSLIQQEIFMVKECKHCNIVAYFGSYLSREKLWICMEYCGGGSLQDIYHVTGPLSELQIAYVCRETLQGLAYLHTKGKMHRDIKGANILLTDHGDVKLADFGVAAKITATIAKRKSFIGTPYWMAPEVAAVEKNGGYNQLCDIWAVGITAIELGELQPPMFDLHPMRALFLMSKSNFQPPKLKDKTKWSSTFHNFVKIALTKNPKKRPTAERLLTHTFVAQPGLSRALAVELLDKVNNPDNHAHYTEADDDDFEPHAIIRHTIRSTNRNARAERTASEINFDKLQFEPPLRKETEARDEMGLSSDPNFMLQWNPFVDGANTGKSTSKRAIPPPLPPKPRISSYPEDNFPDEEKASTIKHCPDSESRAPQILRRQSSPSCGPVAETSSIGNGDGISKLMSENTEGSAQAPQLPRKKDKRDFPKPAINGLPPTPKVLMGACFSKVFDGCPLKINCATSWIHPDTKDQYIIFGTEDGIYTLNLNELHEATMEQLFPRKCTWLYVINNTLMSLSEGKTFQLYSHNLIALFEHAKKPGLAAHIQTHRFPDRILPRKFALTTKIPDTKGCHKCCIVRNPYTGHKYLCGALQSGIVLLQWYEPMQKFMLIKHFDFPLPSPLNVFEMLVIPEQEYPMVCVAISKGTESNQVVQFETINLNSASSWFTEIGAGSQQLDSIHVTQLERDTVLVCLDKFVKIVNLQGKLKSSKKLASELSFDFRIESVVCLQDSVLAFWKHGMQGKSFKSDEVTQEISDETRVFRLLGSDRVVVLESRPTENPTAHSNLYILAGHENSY
# UniProt P00519, sequence (whole entry, unmodified, looked up): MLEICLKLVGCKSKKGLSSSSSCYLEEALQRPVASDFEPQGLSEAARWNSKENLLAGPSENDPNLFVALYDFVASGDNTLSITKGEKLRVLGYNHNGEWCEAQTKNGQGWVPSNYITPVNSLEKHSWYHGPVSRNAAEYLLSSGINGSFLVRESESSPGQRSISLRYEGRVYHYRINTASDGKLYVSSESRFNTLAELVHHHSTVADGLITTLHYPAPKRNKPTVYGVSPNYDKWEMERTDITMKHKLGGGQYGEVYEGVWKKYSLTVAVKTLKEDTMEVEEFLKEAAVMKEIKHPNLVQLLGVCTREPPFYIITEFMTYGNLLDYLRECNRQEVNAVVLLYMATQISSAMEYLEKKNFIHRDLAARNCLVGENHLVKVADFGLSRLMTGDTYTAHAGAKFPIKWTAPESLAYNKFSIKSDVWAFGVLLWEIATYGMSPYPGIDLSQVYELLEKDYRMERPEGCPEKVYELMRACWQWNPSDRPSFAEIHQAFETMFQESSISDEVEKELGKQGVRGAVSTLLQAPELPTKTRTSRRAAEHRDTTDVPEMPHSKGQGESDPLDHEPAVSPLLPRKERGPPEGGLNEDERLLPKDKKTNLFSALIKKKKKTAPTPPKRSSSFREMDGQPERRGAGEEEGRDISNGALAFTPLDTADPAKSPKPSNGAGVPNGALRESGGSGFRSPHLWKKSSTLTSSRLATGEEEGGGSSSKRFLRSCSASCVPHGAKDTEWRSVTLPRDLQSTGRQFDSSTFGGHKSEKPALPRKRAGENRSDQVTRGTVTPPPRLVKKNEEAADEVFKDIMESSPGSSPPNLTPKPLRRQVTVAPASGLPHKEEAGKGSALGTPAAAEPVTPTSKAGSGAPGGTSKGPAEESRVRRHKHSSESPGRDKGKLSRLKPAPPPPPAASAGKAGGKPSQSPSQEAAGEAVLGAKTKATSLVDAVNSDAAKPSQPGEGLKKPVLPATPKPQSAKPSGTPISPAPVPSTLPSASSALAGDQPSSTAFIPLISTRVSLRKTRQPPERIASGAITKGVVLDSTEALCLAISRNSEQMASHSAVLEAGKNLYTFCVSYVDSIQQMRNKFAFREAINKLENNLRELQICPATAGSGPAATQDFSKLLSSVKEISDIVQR
# UniProt P11309, sequence (whole entry, looked up): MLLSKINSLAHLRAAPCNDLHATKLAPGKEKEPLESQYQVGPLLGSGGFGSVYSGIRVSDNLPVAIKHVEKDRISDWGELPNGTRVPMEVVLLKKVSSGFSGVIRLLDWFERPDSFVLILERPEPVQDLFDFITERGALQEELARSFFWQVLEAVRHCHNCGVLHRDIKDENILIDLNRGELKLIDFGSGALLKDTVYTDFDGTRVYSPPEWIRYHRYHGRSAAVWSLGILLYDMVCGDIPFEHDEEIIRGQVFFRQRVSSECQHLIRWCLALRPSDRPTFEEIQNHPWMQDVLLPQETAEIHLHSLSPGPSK

# Series 1 — cell line: A-375; concentration: 100 µM; time: 36 h
Structure (SMILES),viability
NS(=O)(=O)c1cc(C2(O)NC(=O)c3ccccc32)ccc1Cl (stereo not shown),96.5%
CCS(=O)(=O)CCn1c([N+](=O)[O-])cnc1C,102%
CN(C)CCN(Cc1ccccc1)c1ccccn1,95.4%
COC(=O)c1ccccc1O,107%
CC(C)(Oc1ccc(CCNC(=O)c2ccc(Cl)cc2)cc1)C(=O)O,102%
CCOC(=O)[C@H](CCc1ccccc1)N[C@@H](C)C(=O)N1[C@H](C(=O)O)C[C@@H]2CCC[C@@H]21,105%
CCC[C@H](N[C@@H](C)C(=O)N1[C@H](C(=O)O)C[C@@H]2CCCC[C@@H]21)C(=O)O,98.1%
Cc1cc(O)c2c(c1)C(=O)c1cccc(O)c1C2=O,124%
CCC(=O)O[C@]1(C(=O)SCF)[C@H](C)C[C@H]2[C@@H]3C[C@H](F)C4=CC(=O)C=C[C@]4(C)[C@@]3(F)[C@@H](O)C[C@@]21C,35.1%
CC(=O)O[C@H]1C[C@@H]2CC[C@@H]3[C@H](CC[C@@]4(C)[C@H]3C[C@H]([N+]3(C)CCCCC3)[C@@H]4OC(C)=O)[C@@]2(C)C[C@@H]1N1CCCCC1,107%
CN(C)CCC=C1c2ccccc2CCc2ccccc21,-0.363%

# Series 2 — read-out: enzyme activity; action: inhibitor; concentration: 0.5 µM; baseline: control
# Target: Focal adhesion kinase 1 (PTK2, Homo sapiens, UniProt Q05397)
# UniProt Q05397, sequence (whole entry, looked up): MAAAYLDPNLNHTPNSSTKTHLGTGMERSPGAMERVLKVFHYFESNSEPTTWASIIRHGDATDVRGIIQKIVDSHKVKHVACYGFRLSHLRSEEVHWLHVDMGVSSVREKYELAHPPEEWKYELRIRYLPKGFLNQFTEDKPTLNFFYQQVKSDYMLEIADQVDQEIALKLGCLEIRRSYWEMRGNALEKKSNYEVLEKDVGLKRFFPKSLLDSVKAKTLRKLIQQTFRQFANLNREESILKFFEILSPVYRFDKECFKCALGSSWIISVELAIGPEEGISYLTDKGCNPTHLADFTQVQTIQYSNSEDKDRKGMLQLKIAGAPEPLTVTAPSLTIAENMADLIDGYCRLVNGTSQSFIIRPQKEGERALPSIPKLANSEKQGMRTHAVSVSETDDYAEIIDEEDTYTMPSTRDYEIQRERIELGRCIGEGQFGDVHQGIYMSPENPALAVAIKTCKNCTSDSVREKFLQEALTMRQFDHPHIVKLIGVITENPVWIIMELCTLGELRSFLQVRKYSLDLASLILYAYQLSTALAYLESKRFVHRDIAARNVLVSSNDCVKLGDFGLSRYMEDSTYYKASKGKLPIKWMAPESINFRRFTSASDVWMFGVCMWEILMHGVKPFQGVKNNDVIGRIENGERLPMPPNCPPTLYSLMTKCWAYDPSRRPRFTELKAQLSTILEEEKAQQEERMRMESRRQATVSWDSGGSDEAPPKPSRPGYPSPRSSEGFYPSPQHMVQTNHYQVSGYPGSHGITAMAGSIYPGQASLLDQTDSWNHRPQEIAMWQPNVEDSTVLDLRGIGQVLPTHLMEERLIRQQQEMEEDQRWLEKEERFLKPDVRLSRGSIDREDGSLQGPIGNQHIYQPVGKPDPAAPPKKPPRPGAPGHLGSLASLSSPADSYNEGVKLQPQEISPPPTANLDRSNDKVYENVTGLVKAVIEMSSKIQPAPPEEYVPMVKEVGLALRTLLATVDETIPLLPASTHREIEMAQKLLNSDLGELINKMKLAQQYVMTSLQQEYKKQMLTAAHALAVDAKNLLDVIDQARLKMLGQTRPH
SMILES,remaining activity
O=c1cc(-c2cccc3c2Sc2ccccc2S3)oc(N2CCOCC2)c1,113%
Cc1nc2cc3nc(-c4cccs4)cnc3cc2n1C,117%
Cc1cn(-c2cc(NC(=O)c3ccc(C)c(Nc4nccc(-c5cccnc5)n4)c3)cc(C(F)(F)F)c2)cn1,107%
COc1cc2ncnc(Nc3cccc(Cl)c3)c2cc1OC,95.1%
CN([C@@H](Cc1ccc(OS(=O)(=O)c2cccc3cnccc23)cc1)C(=O)N1CCN(c2ccccc2)CC1)S(=O)(=O)c1cccc2cnccc12,104%
Cn1nc2c3c(cccc31)C(=O)c1ccccc1-2,92.8%
N#C/C(=C\c1ccc(O)c(O)c1)C(=O)NCc1ccccc1,96.9%
O=C(NC(NC(=S)Nc1ccc(F)c([N+](=O)[O-])c1)C(Cl)(Cl)Cl)C(c1ccccc1)c1ccccc1 (stereo not shown),113%
N#Cc1c(NC(=O)c2cccc3ccccc23)sc2c1CCCC2,101%
CCN(CC)CCNC(=O)c1c(C)[nH]c(/C=C2\C(=O)Nc3ccc(Cl)cc32)c1C,25.8%
Nc1cccc(-c2cc3c(Oc4cccc(O)c4)ncnc3[nH]2)c1,88.4%
C[C@@H]1CCN(C(=O)CC#N)C[C@@H]1N(C)c1ncnc2[nH]ccc12,103%
O=C1C(Cl)=C(N2C(=O)CCC2=O)C(=O)c2ccccc21,98.4%
O=C(Nc1cccc(Nc2nccc(Nc3cccc(C(F)(F)F)c3)n2)c1)C1CC1,89.1%
Cc1cc2ncc(-c3ccccc3)nc2cc1C,92.5%
CN(C)C[C@H]1CCn2c(c(C3=C(c4cn(C)c5ccccc45)C(=O)NC3=O)c3ccccc32)C1,95.9%
COc1cc2ncnc(Nc3ccc(O)c(Br)c3)c2cc1OC,99.5%
Ic1cccc(CSc2nnc(-c3ccncc3)o2)c1,106%
c1ccc(-c2[nH]ncc2-c2ccnc3ccccc23)nc1,99.3%
CCOc1nc(NC(=O)Cc2cc(OC)ccc2OC)cc(N)c1C#N,97.6%
CCN(CC)C(=O)c1ccc(Nc2nc(OCC3CCCCC3)c3[nH]cnc3n2)cc1,76.9%
c1ccc(-c2cnc(Nc3ccc(OCCN4CCCC4)cc3)s2)cc1,98.3%
O=C1c2ccccc2-c2n[nH]c3cccc1c23,64.8%

# Series 3 — cell line: Huh-7; concentration: 10 µM; time: 24 h
Structure (SMILES),viability [%]
Oc1c(I)cc(Cl)c2cccnc12,101
COc1ccc([C@@H]2Sc3ccccc3N(CCN(C)C)C(=O)[C@@H]2OC(C)=O)cc1,92.5
COc1c(N2C[C@@H]3CCCN[C@@H]3C2)c(F)cc2c(=O)c(C(=O)O)cn(C3CC3)c12,99
[H]/N=C(/N)N[C@H]1[C@H](O)[C@@H](O)[C@H](O[C@@H]2O[C@@H](C)[C@](O)(C=O)[C@H]2O[C@@H]2O[C@@H](CO)[C@H](O)[C@@H](O)[C@@H]2NC)[C@@H](N/C(N)=N\[H])[C@@H]1O,96.9
Nc1ncn([C@@H]2O[C@H](CO)[C@@H](O)[C@H]2O)c(=O)n1,63.5
O=C1C(O)=C([C@H]2CC[C@H](c3ccc(Cl)cc3)CC2)C(=O)c2ccccc21,98.9
CC[C@]1(O)C[C@@H]2CN(CCc3c([nH]c4ccccc34)[C@@](C(=O)OC)(c3cc4c(cc3OC)N(C)[C@H]3[C@@](O)(C(=O)OC)[C@H](OC(C)=O)[C@]5(CC)C=CCN6CC[C@]43[C@@H]65)C2)C1,58.2
NS(=O)(=O)c1cc2c(cc1C(F)(F)F)NC(Cc1ccccc1)NS2(=O)=O (stereo not shown),103
NC(=O)c1cccnc1,101
CCN(CC)CCOC(=O)[C@H](Cc1cccc2ccccc12)C[C@H]1CCCO1,97
O=C(Nc1ccccc1)c1ccccc1O,95.1
CC(C)(C)NCC(O)COc1cccc2c1C[C@H](O)[C@H](O)C2 (mixture of isomers),97.5
CC1=C(C(=O)O)N2C(=O)[C@@H](NC(=O)[C@H](N)c3ccc(O)cc3)[C@H]2SC1,104

# Series 4 — read-out: cell-free assay; method: competition with immobilised ligand; concentration: 1 µM
# SMILES: CNCc1ccccc1-c1csc([C@@H](C)Nc2nc(C)nc3cc(OC)c(OC)cc23)c1
target,remaining binding [%]
"PIP4K2B (Homo sapiens, UniProt P78356)",100
"MAPK3 (Homo sapiens, UniProt P27361)",94
"PAK3 (Homo sapiens, UniProt O75914)",86
"PIM1 (Homo sapiens, UniProt P11309)",97
"TLK1 (Homo sapiens, UniProt Q9UKI8)",100
"MAP4K5 (Homo sapiens, UniProt Q9Y4K4)",100
"PIK3CA (Homo sapiens, UniProt P42336, E545A)",91
"KIT (Homo sapiens, UniProt P10721, T670I/V559D)",80
"EGFR (Homo sapiens, UniProt P00533, G719S)",69
"EPHA3 (Homo sapiens, UniProt P29320)",87
"Tyrosine-protein kinase ABL1, phosphorylated (ABL1, Homo sapiens, UniProt P00519, F317L)",100
"SRMS (Homo sapiens, UniProt Q9H3Y6)",92
"PRKACB (Homo sapiens, UniProt P22694)",100
"MAPK10 (Homo sapiens, UniProt P53779)",71
"KIT (Homo sapiens, UniProt P10721, L576P)",92
"NEK11 (Homo sapiens, UniProt Q8NG66)",100
"Mast/stem cell growth factor receptor Kit, autoinhibited (KIT, Homo sapiens, UniProt P10721)",81

# A few entries again (series 2):
SMILES,remaining activity
Cc1cc2ncc(-c3ccccc3)nc2cc1C,92.5%
CN(C)C[C@H]1CCn2c(c(C3=C(c4cn(C)c5ccccc45)C(=O)NC3=O)c3ccccc32)C1,95.9%
COc1cc2ncnc(Nc3ccc(O)c(Br)c3)c2cc1OC,99.5%
Ic1cccc(CSc2nnc(-c3ccncc3)o2)c1,106%
c1ccc(-c2[nH]ncc2-c2ccnc3ccccc23)nc1,99.3%
CCOc1nc(NC(=O)Cc2cc(OC)ccc2OC)cc(N)c1C#N,97.6%
CCN(CC)C(=O)c1ccc(Nc2nc(OCC3CCCCC3)c3[nH]cnc3n2)cc1,76.9%
c1ccc(-c2cnc(Nc3ccc(OCCN4CCCC4)cc3)s2)cc1,98.3%
